Measured values pooled from the literature.
Protocols differ between the studies behind these lines. Numbers after ± are the reported error.

| Compound | test | test system | setting | half-life |
| --- | --- | --- | --- | --- |
| N#Cc1cc(NC(=O)[C@H]2c3ccccc3C(=O)N(CC(F)(F)F)[C@@H]2c2cccnc2)ccc1F | – | human, plasma | oral, 75 mg, median | 17.6 h |
| O=C(O)CCC(=O)O.[2H]C([2H])([2H])Oc1cc(C)c2[nH]ccc2c1CN1CC[C@@H](C2CC2)C[C@H]1c1ccc(C(=O)O)cc1 | – | human, plasma | 125 mg twice daily, day 10, multiple ascending dose, mean | 32.1 h |
| CN(C(=O)C(C)(C)c1cc(C(F)(F)F)cc(C(F)(F)F)c1)c1cnc(N2C[C@H]3COCCN3C[C@H]2CO)cc1-c1ccc(F)cc1[14CH3] | LC-MS/MS | human, male, plasma | oral, 120 mg | 37.1 h |
| CO[C@@H]1[C@H](OC(=O)N2CC(CCN3CCOCC3)C2)CC[C@]2(CO2)[C@H]1[C@@]1(C)O[C@@H]1CC=C(C)C | – | humans, plasma | subcutaneous, 1.8 mg twice weekly, first dose | 0.83 ± 0.26 h |
| CO[C@H]1C[C@@H]2CC[C@@H](C)[C@@](O)(O2)C(=O)C(=O)N2CCCC[C@H]2C(=O)O[C@H]([C@H](C)C[C@@H]2CC[C@@H](OC(=O)NCCOCCOCCOCCOCCOCCOCCOCCOCCC(=O)N3CCc4cc(Cn5nc(-c6ccc7oc(N)nc7c6)c6c(N)ncnc65)ccc4C3)[C@H](OC)C2)C[C@@H](O)[C@H](C)/C=C(\C)[C@@H](O)[C@@H](OC)C(=O)[C@H](C)C[C@H](C)/C=C/C=C/C=C/1C | – | human patients, plasma | intravenous, 16 mg, cycle 1 day 15 | 7.9 h |
| COC(=O)N[C@H](C(=O)N1CCC[C@H]1c1nc2cc([C@H]3CC[C@H](c4cc5nc([C@@H]6CCCN6C(=O)[C@@H](NC(=O)OC)[C@@H](C)OC)[nH]c5cc4F)N3c3cc(F)c(N4CCC(c5ccc(F)cc5)CC4)c(F)c3)c(F)cc2[nH]1)[C@@H](C)OC | – | healthy human subjects, plasma | oral, added: carbamazepine twice daily | 12 h |
| C[C@@H](Cn1ccc(-c2ccc(C#N)c(Cl)c2)n1)NC(=O)c1cc([C@@H](C)O)[nH]n1 | – | human, fasted | oral, 300 mg 14C-darolutamide solution, geometric mean | 6.58 h |
| Cc1nc2ccc(F)cc2n1-c1nc(N)c(F)c(Nc2ccc(C(F)(F)F)cc2)n1 | – | human patients, plasma | oral, 400 mg twice weekly, cycles 1 and 2 pooled | 10.1 h |
| CC(C)NC(=O)COc1cccc(-c2nc(Nc3ccc4[nH]ncc4c3)c3ccccc3n2)c1 | – | human male, plasma | oral, 200 mg once daily, day 12, fed, geometric mean, added: dabigatran etexilate | ~10.4 h |
| CCN1CCN(Cc2ccc(Nc3ncc(F)c(-c4cc(F)c5nc6n(c5c4)[C@H](C)CCC6)n3)nc2)CC1 | – | human, plasma | 200 mg single dose, mean | 35.9 h |
| CC(C)(Sc1ccncc1-c1ccc(C#N)c2ccccc12)C(=O)O | – | human, plasma | oral, 5 mg once daily, added: febuxostat 20 mg | 13.2 h |
| Nc1ccn([C@@H]2O[C@H](CO)[C@@H](O)C2(F)F)c(=O)n1 | HPLC-UV | human, plasma | intravenous, 800 mg/m^2, median, before paricalcitol | 2.85 h |
| C[C@@H](N)c1cc(Cl)ccc1Cn1c(=S)[nH]c(=O)c2[nH]ccc21 | – | human, both sexes, severe renal impairment | oral, 2.5 mg single dose, geometric mean | ~131 h |
| COc1cc([C@@H]2Oc3ccc([C@H]4Oc5cc(O)cc(O)c5C(=O)[C@@H]4O)cc3O[C@H]2CO)ccc1O | – | OATP1B1/1B3 humanized mice, plasma | oral gavage, 500 mg/kg silymarin | 0.36 h |
| COc1ccc([C@@H](O)c2cc(-c3ncnc4cc(N5CCOCC5)ccc34)c(F)cc2Cl)nn1 | – | human, plasma | oral, 200 mg once daily, single dose, geometric mean | 6.95 h |
| Cc1nc(-c2ccc(OCC(C)C)c(C#N)c2)sc1C(=O)O | – | human, plasma | oral, 10 mg once daily, added: verinurad 2.5 mg | 7.22 h |
| C#C[C@]1(CO)O[C@@H](n2cnc3c(N)nc(F)nc32)C[C@@H]1O | – | human, plasma | oral, 400 mg, single dose, geometric mean | 48.5 h |
| NCCCS(=O)(=O)O | – | human, plasma | oral, 256.5 mg once daily, day 1, capsule, fasted | 11.7 h |
| OC[C@H]1O[C@@H](c2ccc(Cl)c(Cc3ccc(O[C@H]4CCOC4)cc3)c2)[C@H](O)[C@@H](O)[C@@H]1O | – | healthy humans, plasma | oral, 25 mg, alone | 7.12 ± 0.69 h |
| Cc1ccc([C@@H]2O[C@H](CO)[C@@H](O)[C@H](O)[C@H]2O)cc1Cc1ccc(-c2ccc(F)cc2)s1 | – | human, maintenance hemodialysis patients | oral, 100 mg once daily, steady state, mean | 10.9 h |
| Cc1cc(/C=C/C#N)cc(C)c1Nc1ccnc(Nc2ccc(C#N)cc2)n1 | – | human, haemodialysis patients, plasma | oral, fixed-dose combination | 28.9 h |
| CC(C)n1c(Nc2cccnc2)nc2cnc(Nc3ccc(N4CCN(C)CC4)cc3)nc21 | LC-MS/MS | human, male, plasma | oral, 100 mg, day 11, added: itraconazole 200 mg | 43.6 h |
| COc1cc(Nc2ncc3c(n2)-c2ccc(Cl)cc2C(c2c(F)cccc2OC)=NC3)ccc1C(=O)O | – | human patients, plasma | oral, 40 mg twice daily, day 7, added: pembrolizumab | 7.72 h |
| C#C[C@]1(COP(=O)(O)OP(=O)(O)O)O[C@@H](n2cnc3c(N)nc(F)nc32)C[C@@H]1O | measured: islatravir triphosphate | human, PBMC | oral, 30 mg single dose | 105 h |

| Compound | test | test system | setting | half-life |
| --- | --- | --- | --- | --- |
| COc1ncc(-c2nc3c(n2C(C)C)[C@H](c2ccc(Cl)cc2)N(c2cc(Cl)cn(C)c2=O)C3=O)c(OC)n1 | LC-MS/MS, noncompartmental | human, plasma | oral, 15 mg, low-dose, median | 6 h |
| CC1(COc2ccc3c(c2)ncn3-c2ccc3cccc(N4CCC(N)CC4)c3n2)COC1 | – | human patients, recurrent/progressive HGG or DIPG, serum | oral, 220 mg/m^2, day 1, median | 7.9 h |
| CN(C)C(=O)c1cc2cnc(Nc3ccc(N4CCNCC4)cn3)nc2n1C1CCCC1 | LC-MS/MS | human, expansion cohort, plasma | oral, 800 mg, day 14, added: gemcitabine 1000 mg/m^2 | 24.6 h |
| CC(C)c1nc(N(C)S(C)(=O)=O)nc(-c2ccc(F)cc2)c1/C=C/[C@@H](O)C[C@@H](O)CC(=O)O | – | healthy human subjects, plasma | oral, 10 mg, arithmetic mean, added: fruquintinib 5 mg | 14.5 h |
| CCNCc1cc(Nc2ccnc3cc(Cl)ccc23)ccc1O | – | human, both sexes, plasma | oral, dose not given, fixed-dose combination | 169 h |
| C=CC(=O)N(C)CCOc1c(N)ncnc1-c1cc(F)cc(NC(=O)c2ccc(C3CC3)cc2F)c1C | – | human, fed, whole blood | oral, 60 mg single dose, food effect study, median | 0.93 h |
| CC(=O)O[C@H]1C(=O)[C@@]2(C)[C@H]([C@H](OC(=O)c3ccccc3)[C@]3(O)C[C@H](OC(=O)[C@H](O)[C@@H](NC(=O)c4ccccc4)c4ccccc4)C(C)=C1C3(C)C)[C@]1(OC(C)=O)CO[C@@H]1C[C@@H]2O | noncompartmental analysis | human cancer patients, plasma | intravenous infusion, 60 mg/m^2, cycle 1 day 1, added: daily oral co-medication | 9.25 h |
| CC#CC(=O)N1CC[C@@H](n2c(=O)n(-c3ccc(Oc4ccccc4)cc3)c3c(N)ncnc32)C1 | – | human, fasted, plasma | oral, 480 mg once daily, cycle 1 day 28 | 3.07 ± 0.486 h |
| Cc1noc(C)c1-c1cc(C(O)(c2ccccn2)c2ccccn2)c2nc(C3CC3)[nH]c2c1 | – | human patients, plasma | oral, 2 mg, cycle 1 day 8, monotherapy | 15.9 h |
| NC[C@@]1(CC(=O)O)[C@@H]2CC[C@H]3C[C@@H]2[C@@H]1C3 | – | human, moderate renal impairment, plasma | oral, 20 mg single dose, geometric mean | 5.98 h |
| C[C@H]1[C@@H](O)O[C@@H]2O[C@@]3(C)CC[C@H]4[C@H](C)CC[C@@H]1[C@@]24OO3 | – | human, both sexes, plasma | oral, dose not given, non-fixed combination | 1.38 h |
| N#CCNC(=O)c1ccc(-c2ccnc(Nc3ccc(N4CCOCC4)cc3)n2)cc1 | – | healthy human volunteers, plasma | oral, day 12, without rifampin | 3.53 h |
| Cn1cncc1[C@@](N)(c1ccc(Cl)cc1)c1ccc2c(c1)c(-c1cccc(Cl)c1)cc(=O)n2C | – | human, plasma | oral, 300 mg/m^2, range, first dose | 1.5 to 12 h |
| CCOc1c([C@H](C)n2nc(C)c3c(N)ncnc32)cc(Cl)c(F)c1[C@@H]1CNC(=O)C1 | – | human, fasted, plasma | oral, dose not given, steady state, geometric mean | ~10 h |
| C[C@H](Oc1ccc(Br)cc1-c1ccon1)C(=O)O | – | healthy male humans, plasma | oral, 400 mg twice daily, day 1 | 3.7 h |
| Cc1cc(C)c(CNC(=O)c2cc(Cl)c3c(c2C)O[C@@](C)([C@H]2CC[C@H](N(C)C)CC2)O3)c(=O)[nH]1 | – | healthy male human, plasma | oral, 25 mg, alone, before fluconazole | 21.7 h |
| CC(C)[C@H](N)C(=O)NCCCS(=O)(=O)O | – | human, plasma | oral, 340 mg once daily days 8-14, day 14, fasted, capsule | 1.13 h |
| CNC(=O)n1ccc2cc(Oc3ccnc(NC(=O)c4ccc(C5CCN(CCO)CC5)cc4)c3)c(OCCOC)cc21 | – | healthy human, plasma | oral, 35 mg, geometric mean, added: rabeprazole 20 mg | 28.9 h |
| Cc1nc(Nc2ncc(C(=O)Nc3c(C)cccc3Cl)s2)cc(N2CCN(CCO)CC2)n1 | – | human patients | oral, 65 mg/m^2, day 42 | 5.7 ± 2.1 h |
| NC(CO)(CO)CCc1ccc(Sc2cccc(OCc3ccccc3)c2)cc1Cl | – | human male, whole blood | oral, 3 mg, given alone | 115 h |
| COc1ccccc1OCC(O)CN1CCN(CC(=O)Nc2c(C)cccc2C)CC1 (stereo not drawn) | – | human | oral, 12 mg/kg/day | ~2 h |
| Cc1cc(OCCOCCC(F)(F)P(=O)(O)O)ccc1CCc1cnc2c(N)nc3cc(CCC(=O)O)ccc3c2c1 | – | human, serum | intratumoral, 100 µg every 2 weeks, cycle 1 day 1 | 19.9 h |
| O=C(COc1ccc(Cl)cc1)NC12CC(c3nnc([C@H]4C[C@@H](OC(F)(F)F)C4)o3)(C1)C2 | – | healthy human volunteers fasted, plasma | oral, 200 mg single dose, geometric mean | 29.5 h |
| CCCCCCCCCCCCCCCC(=O)N[C@@H](CCC(=O)NCCCC[C@@H]1NC(=O)[C@H]([C@@H](C)CC)NC(=O)[C@@H](NC(=O)[C@@H]2CCCN2C(=O)[C@H](Cc2ccccc2)NC(=O)[C@H](Cc2c[nH]cn2)NC(=O)[C@@H](NC(=O)[C@H](CC(=O)O)NC(=O)CC(C)C)[C@@H](C)O)CSSC[C@@H](C(=O)N[C@@H](CCCCN)C(N)=O)NC(=O)CNC(=O)[C@H](CCCCN)NC(=O)[C@H](CO)NC(=O)[C@H](CCCNC(=N)N)NC(=O)[C@@H]2CCCN2C(=O)[C@H](CCC(=O)O)NC(=O)[C@H](Cc2ccccc2)NC1=O)C(=O)O | – | healthy human, plasma | subcutaneous, 20 mg, single dose, aqueous formulation | 33.5 ± 19.3 h |

A few entries again:
| Compound | test | test system | setting | half-life |
| --- | --- | --- | --- | --- |
| CCN1CCN(Cc2ccc(Nc3ncc(F)c(-c4cc(F)c5nc6n(c5c4)[C@H](C)CCC6)n3)nc2)CC1 | – | human, plasma | 200 mg single dose, mean | 35.9 h |
| CC(C)(Sc1ccncc1-c1ccc(C#N)c2ccccc12)C(=O)O | – | human, plasma | oral, 5 mg once daily, added: febuxostat 20 mg | 13.2 h |
| Nc1ccn([C@@H]2O[C@H](CO)[C@@H](O)C2(F)F)c(=O)n1 | HPLC-UV | human, plasma | intravenous, 800 mg/m^2, median, before paricalcitol | 2.85 h |
| C[C@@H](N)c1cc(Cl)ccc1Cn1c(=S)[nH]c(=O)c2[nH]ccc21 | – | human, both sexes, severe renal impairment | oral, 2.5 mg single dose, geometric mean | ~131 h |
| COc1cc([C@@H]2Oc3ccc([C@H]4Oc5cc(O)cc(O)c5C(=O)[C@@H]4O)cc3O[C@H]2CO)ccc1O | – | OATP1B1/1B3 humanized mice, plasma | oral gavage, 500 mg/kg silymarin | 0.36 h |
| COc1ccc([C@@H](O)c2cc(-c3ncnc4cc(N5CCOCC5)ccc34)c(F)cc2Cl)nn1 | – | human, plasma | oral, 200 mg once daily, single dose, geometric mean | 6.95 h |
